Published values collected from several papers.
Protocols differ between the studies behind these lines. ± marks the error that the study gave.
gag-pol reverse transcriptase: Gag-Pol polyprotein, reverse transcriptase (gag-pol, Human immunodeficiency virus type 1 group M subtype B, UniProt P04585)
gag-pol integrase: Gag-Pol polyprotein, integrase (gag-pol, Human immunodeficiency virus type 1 group M subtype B, UniProt P04585)
gag-pol protease: Gag-Pol polyprotein, protease (gag-pol, Human immunodeficiency virus type 1 group M subtype B, UniProt P04585)

SMILES | target | assay | conditions | quantity | result
C=C(C)C1CCc2c(c(C)cc(O)c(=O)c2O)C1 (centres unmarked) | Gag-Pol polyprotein, RT RNase H domain (gag-pol, Human immunodeficiency virus type 1 group M subtype B, UniProt P04585) | RNase H activity, inhibitor |  | Ki | 1000 ± 400 nM
Nc1ncnc2c1ncn2C1CCC(OC(C(=O)O)P(=O)(O)O)C1 (racemic) | gag-pol reverse transcriptase | enzyme activity, inhibitor |  | IC50 | 3100 nM
Cc1nc([C@H](NC(=O)c2ccc(-c3ccc(Cl)cc3)[nH]2)[C@@H]2CCCCN2)sc1CO | gag-pol integrase | enzyme activity, inhibitor |  | IC50 | > 100000 nM
NS(=O)(=O)c1ccc(NC(=O)c2ccccc2SSc2ccccc2C(=O)Nc2ccc(S(N)(=O)=O)cc2)cc1 | Gag-Pol polyprotein, integrase residues 1-213 (gag-pol, Human immunodeficiency virus type 1 group M subtype B, UniProt P04585) | disintegration activity | C-terminally truncated integrase, 10 mM Mn2+ | IC50 | 1140 nM
Nc1ccn(C2CCC(OC(C(=O)O)P(=O)(O)O)C2)c(=O)n1 (racemic) | gag-pol reverse transcriptase | enzyme activity, inhibitor |  | IC50 | 2200 nM
CC(C)C[C@@H]1NC(=O)[C@H](CCCCN)NC(=O)[C@H](CC(C)C)NC(=O)[C@@](C)(NC(=O)[C@H](Cc2ccccc2)NC(=O)[C@H](Cc2ccc(O)cc2)NC(=O)[C@H](C)NC(=O)[C@@H](N)[C@@H](C)O)CCC=CCC[C@@](C)(C(=O)NCC(=O)N[C@@H](CCCNC(=N)N)C(=O)N[C@@H](Cc2c[nH]c3ccccc23)C(N)=O)NC1=O | gag-pol integrase | integrase 3'-processing, inhibitor |  | IC50 | 90000 nM
COc1ccc2c(c1)OCCCC=CCCCCN(CC(O)C(Cc1ccccc1)NC(=O)OC1COC3OCCC13)S2(=O)=O (mixture of isomers) | gag-pol protease | enzyme activity, inhibitor |  | Ki | 0.082 nM
CC(C)C[C@@H]1NC(=O)[C@H](CCCCN)NC(=O)[C@H](CC(C)C)NC(=O)[C@@](C)(NC(=O)[C@H](Cc2ccccc2)NC(=O)[C@H](Cc2ccc(O)cc2)NC(=O)[C@H](C)NC(=O)[C@@H](N)[C@@H](C)O)CCCCC=CCCCC[C@@](C)(C(=O)NCC(=O)N[C@@H](CCCNC(=N)N)C(=O)N[C@@H](Cc2c[nH]c3ccccc23)C(N)=O)NC1=O | gag-pol integrase | integrase 3'-processing, inhibitor |  | IC50 | 48000 ± 10000 nM
CC(C)C(O)C(NC(=O)[C@H](Cc1ccc(O)cc1)NC(=O)C(Cc1ccc(O)cc1)[N+](C)(C)C)C(=O)N[C@@H](C)C(=O)O (some centres unmarked) | gag-pol protease | enzyme activity, inhibitor |  | IC50 | > 10000 nM
C=CCCCC[C@](C)(NC(=O)[C@H](CC(C)C)NC(=O)[C@H](CCCCN)NC(=O)[C@H](CC(C)C)NC(=O)[C@](C)(CCCCC=C)NC(=O)[C@H](Cc1ccccc1)NC(=O)[C@H](Cc1ccc(O)cc1)NC(=O)[C@H](C)NC(=O)[C@@H](N)[C@@H](C)O)C(=O)NCC(=O)N[C@@H](CCCNC(=N)N)C(=O)N[C@@H](Cc1c[nH]c2ccccc12)C(N)=O | gag-pol integrase | integrase 3'-processing, inhibitor |  | IC50 | 61000 ± 12000 nM
CC(C)c1ccc(S(=O)(=O)N(CCc2ccccc2)C[C@@H](O)[C@H](Cc2ccccc2)NC(=O)O[C@H]2CO[C@H]3OCC[C@H]32)cc1 | gag-pol protease | enzyme activity, inhibitor, FRET | pH 5.0, 27 °C, added: substrate 10 µM | Ki | 1080 nM

Repeated from above:
SMILES | target | assay | conditions | quantity | result
CC(C)c1ccc(S(=O)(=O)N(CCc2ccccc2)C[C@@H](O)[C@H](Cc2ccccc2)NC(=O)O[C@H]2CO[C@H]3OCC[C@H]32)cc1 | gag-pol protease | enzyme activity, inhibitor, FRET | pH 5.0, 27 °C, added: substrate 10 µM | Ki | 1080 nM
